Published values of several laboratories.
Lines come from different studies, so protocols differ. Values joined by “and” are separate records of one study, mostly repeats; a detail may differ. Numbers after ± are the reported error.
Uncharacterized hydrolase SAUSA300_2518: Uncharacterized hydrolase SAUSA300_2518 (Staphylococcus aureus, UniProt Q2FDS6)
UniProt Q2FDS6, sequence (whole entry, looked up): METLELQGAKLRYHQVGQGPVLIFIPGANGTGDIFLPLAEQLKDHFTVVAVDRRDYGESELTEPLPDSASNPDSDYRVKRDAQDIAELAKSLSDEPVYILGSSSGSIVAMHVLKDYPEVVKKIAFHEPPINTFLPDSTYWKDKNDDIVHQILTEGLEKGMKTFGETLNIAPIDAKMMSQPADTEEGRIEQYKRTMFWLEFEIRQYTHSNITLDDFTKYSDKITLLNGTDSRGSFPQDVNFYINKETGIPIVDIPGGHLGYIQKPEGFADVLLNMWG
UniProt Q9Y243, sequence (whole entry, looked up): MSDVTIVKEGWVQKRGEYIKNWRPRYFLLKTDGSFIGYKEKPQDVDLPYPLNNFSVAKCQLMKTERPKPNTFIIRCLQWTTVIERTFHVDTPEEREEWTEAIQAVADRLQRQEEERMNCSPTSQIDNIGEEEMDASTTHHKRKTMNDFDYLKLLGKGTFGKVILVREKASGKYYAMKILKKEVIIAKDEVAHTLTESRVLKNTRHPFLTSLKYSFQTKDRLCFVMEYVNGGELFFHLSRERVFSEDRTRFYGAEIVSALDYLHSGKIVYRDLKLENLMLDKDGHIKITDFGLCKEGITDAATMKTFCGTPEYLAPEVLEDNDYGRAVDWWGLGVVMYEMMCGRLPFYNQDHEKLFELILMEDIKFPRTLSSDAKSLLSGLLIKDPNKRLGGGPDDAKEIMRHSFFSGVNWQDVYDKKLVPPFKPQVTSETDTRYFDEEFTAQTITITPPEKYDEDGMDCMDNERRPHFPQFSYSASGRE
UniProt P54578, sequence (whole entry, looked up): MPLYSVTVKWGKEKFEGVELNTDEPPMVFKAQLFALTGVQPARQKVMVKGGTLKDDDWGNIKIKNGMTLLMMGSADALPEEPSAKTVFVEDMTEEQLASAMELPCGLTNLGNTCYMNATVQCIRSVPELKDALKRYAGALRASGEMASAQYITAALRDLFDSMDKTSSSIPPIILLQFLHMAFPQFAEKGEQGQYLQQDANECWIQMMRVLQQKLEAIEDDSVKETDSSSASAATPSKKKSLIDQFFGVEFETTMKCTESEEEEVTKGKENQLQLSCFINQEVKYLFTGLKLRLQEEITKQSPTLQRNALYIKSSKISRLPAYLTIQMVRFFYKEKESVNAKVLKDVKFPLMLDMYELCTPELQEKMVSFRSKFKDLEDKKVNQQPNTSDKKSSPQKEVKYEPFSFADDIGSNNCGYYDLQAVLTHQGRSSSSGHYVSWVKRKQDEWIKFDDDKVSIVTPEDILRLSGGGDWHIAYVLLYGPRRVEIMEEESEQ
UniProt P21802, sequence (whole entry, looked up): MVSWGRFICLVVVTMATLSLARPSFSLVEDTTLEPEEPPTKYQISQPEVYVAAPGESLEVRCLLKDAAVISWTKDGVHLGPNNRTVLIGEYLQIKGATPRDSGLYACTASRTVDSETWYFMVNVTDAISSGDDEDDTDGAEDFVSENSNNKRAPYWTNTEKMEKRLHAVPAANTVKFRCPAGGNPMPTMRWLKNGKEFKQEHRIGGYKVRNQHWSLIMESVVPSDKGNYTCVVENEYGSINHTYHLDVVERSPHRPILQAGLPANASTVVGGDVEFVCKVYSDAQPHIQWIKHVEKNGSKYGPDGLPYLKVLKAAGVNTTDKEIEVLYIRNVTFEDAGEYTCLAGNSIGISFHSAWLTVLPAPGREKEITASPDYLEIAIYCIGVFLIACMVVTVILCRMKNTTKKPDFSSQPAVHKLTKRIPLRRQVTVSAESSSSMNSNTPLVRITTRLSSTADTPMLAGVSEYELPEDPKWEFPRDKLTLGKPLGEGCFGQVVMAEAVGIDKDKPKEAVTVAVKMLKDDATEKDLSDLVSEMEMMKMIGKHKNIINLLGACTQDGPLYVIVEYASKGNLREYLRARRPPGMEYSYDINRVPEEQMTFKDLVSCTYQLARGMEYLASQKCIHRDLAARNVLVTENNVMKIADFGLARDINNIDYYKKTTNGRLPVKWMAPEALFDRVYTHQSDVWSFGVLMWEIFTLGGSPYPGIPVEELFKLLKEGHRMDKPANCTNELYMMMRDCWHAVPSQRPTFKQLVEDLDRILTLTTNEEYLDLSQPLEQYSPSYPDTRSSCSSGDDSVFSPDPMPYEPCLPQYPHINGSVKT
UniProt Q6PJP8, sequence (whole entry, looked up): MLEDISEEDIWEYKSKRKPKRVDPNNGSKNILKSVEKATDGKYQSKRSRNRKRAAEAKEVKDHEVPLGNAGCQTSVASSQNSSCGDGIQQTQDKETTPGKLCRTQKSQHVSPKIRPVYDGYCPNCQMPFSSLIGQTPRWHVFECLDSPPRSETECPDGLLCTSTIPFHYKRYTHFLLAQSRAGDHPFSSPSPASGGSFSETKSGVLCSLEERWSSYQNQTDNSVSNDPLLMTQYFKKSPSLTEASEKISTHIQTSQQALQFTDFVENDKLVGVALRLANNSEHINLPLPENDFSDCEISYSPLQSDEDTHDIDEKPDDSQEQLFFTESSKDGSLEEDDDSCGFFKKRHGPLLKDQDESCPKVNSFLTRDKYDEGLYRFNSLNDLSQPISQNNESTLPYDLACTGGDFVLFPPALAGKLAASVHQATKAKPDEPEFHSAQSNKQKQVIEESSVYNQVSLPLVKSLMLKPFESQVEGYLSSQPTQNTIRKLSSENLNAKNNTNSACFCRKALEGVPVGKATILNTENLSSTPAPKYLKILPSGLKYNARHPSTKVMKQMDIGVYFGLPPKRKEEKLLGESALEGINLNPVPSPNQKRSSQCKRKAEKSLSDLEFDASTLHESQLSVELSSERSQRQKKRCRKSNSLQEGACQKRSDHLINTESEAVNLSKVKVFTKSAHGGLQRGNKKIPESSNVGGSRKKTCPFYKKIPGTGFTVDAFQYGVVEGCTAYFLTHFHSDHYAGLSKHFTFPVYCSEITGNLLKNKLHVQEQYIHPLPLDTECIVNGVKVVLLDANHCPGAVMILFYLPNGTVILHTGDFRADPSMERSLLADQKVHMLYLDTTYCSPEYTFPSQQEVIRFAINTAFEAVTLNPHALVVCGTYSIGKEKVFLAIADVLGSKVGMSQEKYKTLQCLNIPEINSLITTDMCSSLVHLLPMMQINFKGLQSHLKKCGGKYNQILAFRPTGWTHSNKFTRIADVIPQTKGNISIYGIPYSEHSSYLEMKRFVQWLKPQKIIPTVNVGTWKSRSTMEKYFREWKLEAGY
UniProt P07947, sequence (whole entry, looked up): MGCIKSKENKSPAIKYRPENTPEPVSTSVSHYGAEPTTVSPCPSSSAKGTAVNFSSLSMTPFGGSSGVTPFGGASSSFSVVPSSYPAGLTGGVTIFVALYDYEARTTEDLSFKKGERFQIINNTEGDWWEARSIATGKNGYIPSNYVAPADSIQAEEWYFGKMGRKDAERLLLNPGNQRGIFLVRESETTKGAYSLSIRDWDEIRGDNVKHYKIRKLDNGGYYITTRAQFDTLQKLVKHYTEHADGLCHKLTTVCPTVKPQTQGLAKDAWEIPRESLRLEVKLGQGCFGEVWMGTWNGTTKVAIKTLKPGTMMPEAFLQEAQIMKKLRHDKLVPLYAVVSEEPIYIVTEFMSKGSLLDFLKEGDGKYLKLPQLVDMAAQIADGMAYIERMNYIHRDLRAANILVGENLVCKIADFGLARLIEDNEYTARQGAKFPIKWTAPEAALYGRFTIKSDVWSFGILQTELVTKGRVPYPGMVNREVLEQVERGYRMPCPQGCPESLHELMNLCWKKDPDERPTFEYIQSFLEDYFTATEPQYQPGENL
UniProt P53350, sequence (whole entry, looked up): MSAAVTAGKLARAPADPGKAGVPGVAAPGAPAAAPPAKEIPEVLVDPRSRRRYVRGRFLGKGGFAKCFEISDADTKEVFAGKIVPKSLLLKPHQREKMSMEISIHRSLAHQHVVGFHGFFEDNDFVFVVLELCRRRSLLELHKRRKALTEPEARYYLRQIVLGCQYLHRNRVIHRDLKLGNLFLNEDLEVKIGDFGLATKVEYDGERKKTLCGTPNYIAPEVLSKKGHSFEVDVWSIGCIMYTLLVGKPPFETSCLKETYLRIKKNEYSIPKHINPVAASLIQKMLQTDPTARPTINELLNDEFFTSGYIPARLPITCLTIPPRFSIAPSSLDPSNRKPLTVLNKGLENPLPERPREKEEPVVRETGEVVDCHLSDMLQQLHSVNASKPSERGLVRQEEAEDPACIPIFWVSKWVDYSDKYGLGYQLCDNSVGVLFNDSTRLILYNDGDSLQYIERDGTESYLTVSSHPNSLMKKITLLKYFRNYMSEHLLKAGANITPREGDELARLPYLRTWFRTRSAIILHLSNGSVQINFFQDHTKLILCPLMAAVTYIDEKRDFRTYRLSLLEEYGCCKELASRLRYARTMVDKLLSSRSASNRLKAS
UniProt Q9P289, sequence (whole entry, looked up): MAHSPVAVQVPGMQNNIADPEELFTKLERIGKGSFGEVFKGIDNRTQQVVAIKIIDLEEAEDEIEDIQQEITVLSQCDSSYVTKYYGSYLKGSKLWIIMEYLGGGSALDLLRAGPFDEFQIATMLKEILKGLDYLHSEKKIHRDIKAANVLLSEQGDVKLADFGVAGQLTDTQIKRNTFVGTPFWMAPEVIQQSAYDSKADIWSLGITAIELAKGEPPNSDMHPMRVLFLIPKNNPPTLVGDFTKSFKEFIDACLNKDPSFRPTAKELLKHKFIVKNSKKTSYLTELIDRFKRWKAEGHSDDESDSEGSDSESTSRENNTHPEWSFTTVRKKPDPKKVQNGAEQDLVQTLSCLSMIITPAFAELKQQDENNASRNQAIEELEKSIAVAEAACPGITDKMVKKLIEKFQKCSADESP

| SMILES | tested on | assay | test system | conditions | scale | measurement | result |
| --- | --- | --- | --- | --- | --- | --- | --- |
| Cc1ccc(N2CC3CCC(C2)N3C)cc1C(=O)N[C@H](C)c1cc(-c2cnn(C)c2)nc2ccccc12 | USP14 (Homo sapiens, UniProt P54578) | enzyme activity | – | 10 µM | – | remaining activity | 98.5% |
| O=C(Nc1ccncc1)c1ccccc1OS(=O)(=O)F | Uncharacterized hydrolase SAUSA300_2518 | enzyme activity, inhibitor, fluorogenic substrate | – | 0.05 µM | – | remaining activity | 91% and 84.9% and 92.2% |
| O=C1NC2(CC2)COc2ncc(F)cc2[C@H]2COCCN2c2ccn3ncc1c3n2 | – | – | Sprague-Dawley rat, female, kidneys | oral, 10 mg/kg/day, 4 weeks, end of treatment | – | organ-to-body weight ratio | 0.628 ± 0.05% |
| CC(C)(C)C(=O)OCOP(=O)(OCOC(=O)C(C)(C)C)C1CCCN(O)C1=O (stereo not shown) | TK-10 | – | – | – | – | CC50 | > 100 µM |
| N[C@H](C(=O)N1CCCC1)C1CCN(c2nccc3c(-c4ncc(Cl)cc4Cl)cccc23)CC1 | STK26 (Homo sapiens, UniProt Q9P289) | kinase activity, inhibitor | – | 10 µM, together with: ATP 1 mM | – | inhibition | 2.7% |
| CN1CCCN(C(=O)c2ccc(S(=O)(=O)F)cc2)c2ccccc21 | Uncharacterized hydrolase SAUSA300_2518 | enzyme activity, inhibitor, fluorogenic substrate | – | 1 µM | – | remaining activity | 113% and 111% |
| NC(Cc1cc(O)c(O)cc1O)C(=O)O (racemic) | DCLRE1A (Homo sapiens, UniProt Q6PJP8) | exonuclease activity, inhibitor, fluorescence HTS | – | 10 µM, 80 min, together with: 8 nM 5P-FQ substrate | – | remaining activity | 42.7% |
| Cc1ccc(OS(=O)(=O)F)c(C(=O)Nc2ccncc2)c1 | Uncharacterized hydrolase SAUSA300_2518 | enzyme activity, inhibitor, fluorogenic substrate | – | 5 µM | – | remaining activity | 50.4% and 50.9% and 52.6% |
| O=C1NC(=O)c2c1c1cc(F)c[n+]3c1c1c2c2cc(O)ccc2[n]1[Ru-4]312([N]=C=S)[S+]3CC[S+]1CC[S+]2CC3 (stereo not shown) | FGFR2 (Homo sapiens, UniProt P21802) | enzyme activity | – | 100 nM, human enzyme, together with: 10 µM ATP | baseline: untreated | remaining activity | 81% |
| N#CCC(=O)c1ccccc1 | Genome polyprotein, 3C protease (Enterovirus D68, UniProt A1E4A3) | protease activity, FRET | – | 19 µM, fragment alone | – | remaining activity | 86.7 ± 5.5% |
| [CH3][Ti+2][O]C(=O)c1ccc([S][Au][PH](c2ccccc2)(c2ccccc2)c2ccccc2)cc1.c1cc[cH-]c1.c1cc[cH-]c1 | AKT3 (Homo sapiens, UniProt Q9Y243) | kinase activity, HotSpot radiometric | – | 1 µM, together with: ATP 10 µM | baseline: vehicle | remaining activity | 85.8% and 85.3% |
| Cc1cccc(-c2ccc3nc(NC(=O)C4CCOCC4)nn3c2)c1 | PLK1 (Homo sapiens, UniProt P53350) | enzyme activity | – | 10 µM | – | remaining activity | 52% |
| CC(C)[C@H]1NC(=O)C[C@H]2/C=C/CCSSC[C@@H](NC1=O)C(=O)N[C@H](Cc1cccc3ccccc13)C(=O)NCC(=O)O2 | YES1 (Homo sapiens, UniProt P07947) | enzyme activity, inhibitor | – | 10 µM | – | inhibition | -8.6% |

Repeated from above:
| SMILES | tested on | assay | test system | conditions | scale | measurement | result |
| --- | --- | --- | --- | --- | --- | --- | --- |
| Cc1ccc(N2CC3CCC(C2)N3C)cc1C(=O)N[C@H](C)c1cc(-c2cnn(C)c2)nc2ccccc12 | USP14 (Homo sapiens, UniProt P54578) | enzyme activity | – | 10 µM | – | remaining activity | 98.5% |
| [CH3][Ti+2][O]C(=O)c1ccc([S][Au][PH](c2ccccc2)(c2ccccc2)c2ccccc2)cc1.c1cc[cH-]c1.c1cc[cH-]c1 | AKT3 (Homo sapiens, UniProt Q9Y243) | kinase activity, HotSpot radiometric | – | 1 µM, together with: ATP 10 µM | baseline: vehicle | remaining activity | 85.8% and 85.3% |
